Published values from different studies.
Compare with care: the assays were run in different laboratories.
Organism: Staphylococcus aureus

Structure (SMILES) | assay | system | conditions | MIC
Cc1onc(-c2ccccc2)c1C(=O)N[C@@H]1C(=O)N2[C@@H]1SC(C)(C)[C@@H]2C(=O)O | – | COL, MRSA | – | 256 µg/mL
CC[C@H](C)[C@H](NC(=O)[C@H](CC(C)C)NC(=O)[C@H](CCCNC(=N)N)NC(=O)[C@@H](N)CCCNC(=N)N)C(=O)N[C@@H](CC(C)C)C(=O)N[C@H](C(=O)N[C@@H](CCCCN)C(=O)N[C@H](C(=O)NCC(=O)N1CCC[C@H]1C(=O)N[C@H](C(=O)N[C@H](C(=O)N[C@@H](Cc1ccc(O)cc1)C(=O)N[C@@H](CCCCN)C(=O)N[C@@H](Cc1ccc(O)cc1)C(=O)N[C@@H](Cc1ccccc1)C(=O)N[C@@H](CCCCN)C(=O)N[C@@H](CCCCN)C(=O)N[C@@H](CCC(N)=O)C(=O)N[C@@H](CC(C)C)C(=O)N[C@@H](CC(C)C)C(=O)N[C@@H](CCCCN)C(=O)N[C@@H](CC(C)C)C(N)=O)[C@@H](C)CC)[C@@H](C)CC)[C@@H](C)O)[C@@H](C)O | – | CCARM 3095, methicillin-resistant, Mueller-Hinton broth | 24 h | 32 µM
CC[C@H](C)[C@H](NC(=O)[C@H](CCCNC(=N)N)NC(=O)[C@H](CCCNC(=N)N)NC(=O)[C@H](CCCNC(=N)N)NC(=O)[C@H](CCCNC(=N)N)NC(=O)[C@H](CCCNC(=N)N)NC(=O)[C@@H](N)CCCNC(=N)N)C(=O)N[C@@H](CO)C(=O)N[C@@H](Cc1ccccc1)C(=O)N[C@@H](CC(C)C)C(=O)NCC(=O)N[C@@H](CO)C(=O)N[C@@H](CCCCN)C(=O)N[C@H](C(=O)N[C@H](C(=O)N[C@H](C(=O)N[C@@H](CC(C)C)C(=O)N[C@@H](CC(C)C)C(=O)N[C@@H](CCCCN)C(=O)N[C@@H](CCCNC(=N)N)C(=O)N[C@@H](CCCNC(=N)N)C(=O)N[C@@H](CCCNC(=N)N)C(=O)N[C@@H](CCCNC(=N)N)C(=O)N[C@@H](CCCNC(=N)N)C(N)=O)C(C)C)C(C)C)C(C)C | broth microdilution | – | 24 h, 37 °C | 8 µM
CCCCCCCCCC(=O)N[C@@H](Cc1c[nH]c2ccccc12)C(=O)N[C@H](CC(N)=O)C(=O)N[C@@H](CC(=O)O)C(=O)N[C@@H]1C(=O)NCC(=O)N[C@@H](CCCN)C(=O)N[C@@H](CC(=O)O)C(=O)N[C@H](C)C(=O)N[C@@H](CC(=O)O)C(=O)NCC(=O)N[C@H](CO)C(=O)N[C@@H]([C@H](C)CC(=O)O)C(=O)N[C@@H](CC(=O)c2ccccc2N)C(=O)O[C@@H]1C | broth microdilution | VISA LIM strain 2, Mueller-Hinton broth, Mg2+ 10 mg/L | 16 h, together with: Ca2+ 10 mM | 0.125 µg/mL
CC[C@H](C)[C@H](NC(=O)[C@H](CCCCN)NC(=O)[C@H](CCCCN)NC(=O)CNC(=O)[C@H](CCCCN)NC(=O)[C@H](CC(C)C)NC(=O)[C@H](CCCCN)NC(=O)[C@H](CCCNC(=N)N)NC(=O)[C@@H](NC(=O)[C@H](CC(C)C)NC(=O)[C@H](CCCNC(=N)N)NC(=O)[C@@H](N)CCCNC(=N)N)[C@@H](C)CC)C(=O)N[C@@H](Cc1ccc(O)cc1)C(=O)N[C@@H](CC(C)C)C(=O)N[C@@H](Cc1ccc(O)cc1)C(=O)N[C@@H](Cc1ccccc1)C(=O)N[C@@H](CCCCN)C(=O)N[C@@H](CC(C)C)C(=O)N[C@@H](CCC(N)=O)C(=O)N[C@@H](CC(C)C)C(=O)N[C@@H](CC(C)C)C(=O)N[C@@H](CCCCN)C(=O)N[C@@H](CCCCN)C(N)=O | – | KCTC 1621, Mueller-Hinton broth | together with: 150 mM NaCl | 16 µM
CC[C@H](C)[C@H](NC(=O)[C@H](CC(C)C)NC(=O)[C@@H](NC(=O)[C@H](Cc1ccc(O)cc1)NC(=O)[C@H](CO)NC(=O)CNC(=O)[C@H](CCCNC(=N)N)NC(=O)[C@H](CCCNC(=N)N)NC(=O)[C@H](CCCNC(=N)N)NC(=O)[C@@H]1CCCN1C(=O)[C@H](CCCCN)NC(=O)[C@H](Cc1c[nH]c2ccccc12)NC(=O)[C@@H](NC(=O)[C@H](Cc1c[nH]c2ccccc12)NC(=O)[C@H](CCCCN)NC(=O)[C@H](CCCNC(=N)N)NC(=O)[C@H](CCCNC(=N)N)NC(=O)[C@@H]1CCCN1C(=O)[C@H](CO)NC(=O)[C@H](CCCNC(=N)N)NC(=O)[C@H](CO)NC(=O)[C@H](CCCNC(=N)N)NC(=O)[C@@H](N)CCCNC(=N)N)[C@@H](C)O)[C@@H](C)O)C(=O)N[C@@H](CO)C(=O)N[C@@H](CCC(N)=O)C(=O)NCC(=O)NCC(=O)N[C@@H](CC(N)=O)C(=O)O | – | CMCC 26003 | highest concentration 50 µM | 21.8 µM
CC[C@H](C)[C@H](NC(=O)[C@H](CCCNC(=N)N)NC(=O)[C@H](CCCCN)NC(=O)[C@H](Cc1c[nH]c2ccccc12)NC(=O)[C@H](CCC(N)=O)NC(=O)[C@H](Cc1ccccc1)NC(=O)[C@H](Cc1c[nH]c2ccccc12)NC(=O)[C@@H](NC(=O)[C@H](CCCCN)NC(=O)[C@@H](NC(=O)[C@H](CCC(N)=O)NC(=O)[C@@H](N)CCCNC(=N)N)[C@@H](C)CC)[C@@H](C)CC)C(=O)N[C@@H](CCCCN)C(=O)N[C@@H](Cc1c[nH]c2ccccc12)C(=O)N[C@@H](CCCNC(=N)N)C(=O)N[C@@H](CCCNC(=N)N)C(=O)O | – | ATCC 29213 | – | 0.75 µM
CC[C@H](C)[C@H](NC(=O)[C@H](CC(C)C)NC(=O)[C@H](CCCCN)NC(=O)[C@@H](NC(=O)[C@H](C)NC(=O)[C@H](CCC(=O)O)NC(=O)[C@H](Cc1c[nH]cn1)NC(=O)[C@@H](NC(=O)[C@H](CCCCN)NC(=O)[C@H](CCC(N)=O)NC(=O)[C@H](Cc1ccccc1)NC(=O)[C@@H](N)C(C)C)[C@@H](C)CC)[C@@H](C)CC)C(N)=O | broth microdilution | MW2 resistant | 18 h, 37 °C | > 128 µM
CN1C(=O)Cc2ccc(F)c(CCNCC[C@H]3CN(c4ccc5c(n4)NC(=O)CO5)C(=O)O3)c21 | – | ATCC 29213 | – | 0.06 µg/mL
CC[C@H](C)[C@H](NC(=O)[C@H](Cc1c[nH]c2ccccc12)NC(=O)[C@@H](NC(=O)[C@H](Cc1c[nH]c2ccccc12)NC(=O)[C@@H]1CCCN1C(=O)[C@@H](NC(=O)[C@H](C)N)[C@@H](C)CC)[C@@H](C)CC)C(=O)N[C@@H](Cc1c[nH]c2ccccc12)C(=O)N[C@@H](CCCNC(=N)N)C(=O)N[C@@H](CC(C)C)C(=O)N[C@@H](CC(C)C)C(=O)N[C@@H](CCCNC(=N)N)C(=O)N[C@@H](CCCCN)C(=O)NCC(N)=O | broth microdilution | ATCC 19609 | 18 h, 37 °C | 3.75 µM
N=C(N)NCCC[C@H](NC(=O)[C@@H](N)CCCNC(=N)N)C(=O)N[C@@H](Cc1c[nH]c2ccccc12)C(=O)N[C@@H](Cc1c[nH]c2ccccc12)C(=O)N[C@@H](CCC(N)=O)C(=O)N[C@@H](Cc1ccccc1)C(=O)N[C@@H](CCC(N)=O)C(=O)N[C@@H](Cc1ccccc1)C(=O)N[C@@H](CCCCN)C(N)=O | broth microdilution, optical density | ATCC 25923 | – | 77 µM
CN[C@H](CC(C)C)C(=O)N[C@H]1C(=O)N[C@@H](CC(N)=O)C(=O)N[C@H]2C(=O)N[C@H]3C(=O)N[C@H](C(=O)N[C@H](C(=O)O)c4cc(O)cc(O)c4-c4cc3ccc4O)[C@H](O)c3ccc(c(Cl)c3)Oc3cc2cc(c3O[C@@H]2O[C@H](CO)[C@@H](O)[C@H](O)[C@H]2O[C@H]2C[C@](C)(N)[C@H](O)[C@H](C)O2)Oc2ccc(cc2Cl)[C@H]1O | – | methicillin-susceptible | – | 1 µg/mL
c1ccc(CCOC2CCCc3c2[nH]c2ccccc32)cc1 (stereo not shown) | broth microdilution | SG511 daptomycin-resistant | – | > 16 µg/mL
CC[C@H](C)[C@H](N)C(=O)N[C@@H](CC(C)C)C(=O)NCC(=O)N[C@H](CCCNC(=N)N)C(=O)N[C@H](C(=O)N[C@@H](Cc1c[nH]c2ccccc12)C(=O)N[C@@H](CCCCN)C(=O)NCC(=O)N[C@H](C(=O)N[C@@H](CCCCN)C(=O)N[C@@H](CC(=O)O)C(=O)N[C@H](C(=O)N[C@@H](CC(C)C)C(N)=O)[C@@H](C)CC)[C@@H](C)CC)[C@@H](C)CC | broth microdilution | ATCC 25923 | together with: NaCl 150 mM | 25 µM
CC[C@H](C)[C@H](NC(=O)[C@H](CC(C)C)NC(=O)[C@H](CCCNC(=N)N)NC(=O)[C@@H](N)CCCNC(=N)N)C(=O)N[C@@H](CCCNC(=N)N)C(=O)N[C@@H](CCCCN)C(=O)N[C@@H](CC(C)C)C(=O)N[C@@H](CCCCN)C(=O)NCC(=O)N1CCC[C@H]1C(=O)N[C@H](C(=O)N[C@H](C(=O)N[C@@H](Cc1ccc(O)cc1)C(=O)N[C@@H](CC(C)C)C(=O)N[C@@H](Cc1ccc(O)cc1)C(=O)N[C@@H](Cc1ccccc1)C(=O)N[C@@H](CCCCN)C(=O)N[C@@H](CC(C)C)C(=O)N[C@@H](CCC(N)=O)C(=O)N[C@@H](CC(C)C)C(=O)N[C@@H](CC(C)C)C(=O)N[C@@H](CCCCN)C(=O)N[C@@H](CCCCN)C(N)=O)[C@@H](C)CC)[C@@H](C)CC | – | CCARM 3089, methicillin-resistant, Mueller-Hinton broth | 24 h | 64 µM
Nc1nc(/C(=N/O)C(=O)N[C@@H]2C(=O)N3C(C(=O)O)=C(/C=C4\CCN([C@@H]5CCNC5)C4=O)CS[C@H]23)ns1 | – | mecA−, antibiotic-susceptible | – | 0.5 µg/mL
COC(=O)c1cc(-c2cccc(NC(=O)Nc3ccc(C(F)(F)F)cc3)c2)on1 | – | ATCC 29213, CAMHB | 16 to 18 h | 16 µg/mL
CC[C@H](C)[C@H](NC(=O)[C@H](CC(C)C)NC(=O)[C@H](CCCNC(=N)N)NC(=O)[C@@H](N)CCCNC(=N)N)C(=O)N[C@@H](CCCNC(=N)N)C(=O)N[C@H](C(=O)N[C@@H](CCCCN)C(=O)N[C@H](C(=O)NCC(=O)N1CCC[C@H]1C(=O)N[C@H](C(=O)N[C@H](C(=O)N[C@@H](Cc1ccc(O)cc1)C(=O)N[C@@H](CCCCN)C(=O)N[C@@H](Cc1ccc(O)cc1)C(=O)N[C@@H](Cc1ccccc1)C(=O)N[C@@H](CCCCN)C(=O)N[C@@H](CCCCN)C(=O)N[C@@H](CCC(N)=O)C(=O)N[C@@H](CC(C)C)C(=O)N[C@@H](CC(C)C)C(=O)N[C@@H](CCCCN)C(=O)N[C@@H](CCCCN)C(N)=O)[C@@H](C)CC)[C@@H](C)CC)[C@@H](C)O)[C@@H](C)O | – | CCARM 3090, methicillin-resistant, Mueller-Hinton broth | 24 h | > 128 µM
CC[C@H](C)[C@H](NC(=O)[C@H](Cc1ccccc1)NC(=O)[C@@H](NC(=O)[C@H](Cc1ccccc1)NC(=O)[C@@H]1CCCN1C(=O)[C@@H](NC(=O)[C@H](C)N)[C@@H](C)CC)[C@@H](C)CC)C(=O)N[C@@H](Cc1c[nH]c2ccccc12)C(=O)N[C@@H](CCCNC(=N)N)C(=O)N[C@@H](CC(C)C)C(=O)N[C@@H](CC(C)C)C(=O)N[C@@H](CCCNC(=N)N)C(=O)N[C@@H](CCCCN)C(=O)NCC(N)=O | broth microdilution | ATCC 19609 | 18 h, 37 °C | 1.88 µM

Repeated from above:
Structure (SMILES) | assay | system | conditions | MIC
CC[C@H](C)[C@H](NC(=O)[C@H](Cc1c[nH]c2ccccc12)NC(=O)[C@@H](NC(=O)[C@H](Cc1c[nH]c2ccccc12)NC(=O)[C@@H]1CCCN1C(=O)[C@@H](NC(=O)[C@H](C)N)[C@@H](C)CC)[C@@H](C)CC)C(=O)N[C@@H](Cc1c[nH]c2ccccc12)C(=O)N[C@@H](CCCNC(=N)N)C(=O)N[C@@H](CC(C)C)C(=O)N[C@@H](CC(C)C)C(=O)N[C@@H](CCCNC(=N)N)C(=O)N[C@@H](CCCCN)C(=O)NCC(N)=O | broth microdilution | ATCC 19609 | 18 h, 37 °C | 3.75 µM
